# Measurements collected from several papers.
# Compare with care: the assays were run in different laboratories. Values joined by “and” are separate records of one study, mostly repeats; a detail may differ.
# Target: RAC-beta serine/threonine-protein kinase (AKT2, Homo sapiens, UniProt P31751)
SMILES,assay,conditions,scale,endpoint,value
COc1c(Cl)cccc1Nc1c(-c2ccncc2C#C[C@@]2(C)CCCN2C(=O)/C=C/CN(C)C)[nH]c2c1C(=O)NCC2,"binding, competition with immobilised ligand",3 µM,,remaining binding,89%
Cc1cnc2nc1Nc1cccc(c1)COC/C=C/COCc1cc(ccc1OCCN1CCOCC1)N2,binding,0.1 µM,,remaining binding,100%
CC(C)=CC1OC(C)(C)C2C=C3C(=O)C(Cl)=CC(O)C3C3C(O)C4OC4C(=O)C132 (stereo not drawn),"cell-free assay, competition with immobilised ligand",10 µM,,remaining binding,100%
CN1CCN(Cc2ccc(-c3ccc(CO[C@H]4CCC[C@@H]4NC(=O)c4cc(-c5cnn(C)c5)cnc4N)cc3)cc2)CC1,"enzyme activity, inhibitor",0.1 µM,,inhibition,-8%
CN1CCN(Cc2ccc(NC(=O)c3cccc(C#Cc4cnc(N)c5ncccc45)c3)cc2C(F)(F)F)CC1,"cell-free assay, competition with immobilised ligand",0.5 µM,,remaining binding,84%
COCC12C(=O)NC3C4(C(OC)CC1O)C1CC5(O)C(OC)C(O)C(OC(C)=O)(C1C5OC(=O)c1ccccc1)C3(O)C(OC)C24 (stereo not drawn),"kinase activity, inhibitor, ProQinase kinase profiling",25 µM,reference: control,remaining activity,118% and 96%
Cc1ccc(-c2c(/C=C(\C#N)C(=O)NC(C)C)n(CCCO)c3ncnc(N)c23)cc1,"cell-free assay, competition with immobilised ligand",1 µM,,remaining binding,100%
C=C1CCCCCCCCCC(CO)C1=O (stereo not drawn),"cell-free assay, competition with immobilised ligand",10 µM,,remaining binding,100%
Nc1nc(Nc2ccccc2)sc1C(=O)c1ccccc1,"enzyme activity, inhibitor",10 µM,,remaining activity,70%
O=C(Cc1ccc(OCc2ccccc2)cc1)NC1(C(=O)O)CCN(C(=O)c2ccc(-c3cccc(Cl)c3)cc2)CC1,"enzyme activity, inhibitor",10 µM,,activity vs control,108%
O=C=[N][Ru-4]123([n]4c5ccc(O)cc5c5c6c(c7cc(F)c[n+]1c7c54)C(=O)NC6=O)[S+]1CC[S+]2CC[S+]3CC1 (stereo not drawn),enzyme activity,"100 nM, human enzyme, together with: 10 µM ATP",reference: untreated,remaining activity,90%
Cc1cccc(-c2ccc3nc(NC(=O)C4CCCO4)nn3c2)c1 (stereo not drawn),"enzyme activity, inhibitor",10 µM,,activity vs control,67%
C=CC(=O)N1Cc2nc(-c3cc(-c4cc(Cl)cnc4Cl)c(F)cc3F)n(-c3ccncn3)c2C1,"cell-free assay, inhibitor",1 µM,,inhibition,6.6%
CCn1cc(C(=O)O)c(=O)c2c(N)c(F)c(NC3CCCCC3)cc21,kinase activity,"0.1 µM, together with: ATP at Km",,inhibition,-1.7%
C=CC(=O)Nc1cccc(-c2cnc3[nH]cc(C(=O)NC(C)(C)C)c3n2)c1,"enzyme activity, inhibitor",0.1 µM,,inhibition,3%
